Experimental data collected from several papers.
Lines come from different studies, so protocols differ. Values joined by “and” are separate records of one study, mostly repeats; a detail may differ. Numbers after ± are the reported error.
CA12: Carbonic anhydrase 12 (CA12, Homo sapiens, UniProt O43570)
ZBTB11/CRBN: ZBTB11/CRBN (Homo sapiens, UniProt O95625+Q96SW2)
NLK: Serine/threonine-protein kinase NLK (NLK, Homo sapiens, UniProt Q9UBE8)
NR1D1: Nuclear receptor subfamily 1 group D member 1 (NR1D1, Homo sapiens, UniProt P20393)
Chain of UniProt P20393 (whole entry, looked up): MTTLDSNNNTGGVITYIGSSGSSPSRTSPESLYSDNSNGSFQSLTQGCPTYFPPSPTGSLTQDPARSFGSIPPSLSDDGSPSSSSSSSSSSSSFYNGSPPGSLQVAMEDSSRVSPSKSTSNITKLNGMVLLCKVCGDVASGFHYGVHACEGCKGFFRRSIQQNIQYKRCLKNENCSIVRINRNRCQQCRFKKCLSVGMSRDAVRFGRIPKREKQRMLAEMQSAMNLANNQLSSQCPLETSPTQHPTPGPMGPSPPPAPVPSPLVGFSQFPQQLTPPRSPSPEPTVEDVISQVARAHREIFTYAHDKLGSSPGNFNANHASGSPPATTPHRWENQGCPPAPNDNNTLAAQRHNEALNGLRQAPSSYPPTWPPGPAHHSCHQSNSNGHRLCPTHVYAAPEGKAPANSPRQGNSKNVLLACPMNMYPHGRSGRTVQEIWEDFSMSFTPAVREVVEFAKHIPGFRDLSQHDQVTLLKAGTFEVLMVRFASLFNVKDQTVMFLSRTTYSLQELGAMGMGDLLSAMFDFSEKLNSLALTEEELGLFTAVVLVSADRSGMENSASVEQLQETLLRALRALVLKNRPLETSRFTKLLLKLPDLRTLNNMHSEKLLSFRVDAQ
SLC6A6 G62A: Sodium- and chloride-dependent taurine transporter (SLC6A6, Homo sapiens, UniProt P31641, G62A)
GUK1: GUK1 (Homo sapiens, UniProt Q16774)
Chain of UniProt Q16774 (whole entry, looked up): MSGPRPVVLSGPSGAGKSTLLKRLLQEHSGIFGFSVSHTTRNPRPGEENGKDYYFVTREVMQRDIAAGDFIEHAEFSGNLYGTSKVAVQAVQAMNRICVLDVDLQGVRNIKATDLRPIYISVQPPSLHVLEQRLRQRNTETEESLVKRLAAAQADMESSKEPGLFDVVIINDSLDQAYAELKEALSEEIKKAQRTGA
TOP2A: DNA topoisomerase 2-alpha (TOP2A, Homo sapiens, UniProt P11388)
Chain of UniProt P51575 (whole entry, unmodified, looked up): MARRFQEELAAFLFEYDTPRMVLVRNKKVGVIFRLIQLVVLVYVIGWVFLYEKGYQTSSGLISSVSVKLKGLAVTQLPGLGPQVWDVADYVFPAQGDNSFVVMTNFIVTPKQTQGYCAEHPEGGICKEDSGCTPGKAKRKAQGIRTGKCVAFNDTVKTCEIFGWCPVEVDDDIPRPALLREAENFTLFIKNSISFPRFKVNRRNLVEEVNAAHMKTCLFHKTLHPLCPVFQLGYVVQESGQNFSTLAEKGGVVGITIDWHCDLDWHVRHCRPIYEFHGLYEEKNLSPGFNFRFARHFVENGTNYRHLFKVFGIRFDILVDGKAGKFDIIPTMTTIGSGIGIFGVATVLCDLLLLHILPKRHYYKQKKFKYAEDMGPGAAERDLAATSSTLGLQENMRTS
Chain of UniProt Q1KMD3 (whole entry, looked up): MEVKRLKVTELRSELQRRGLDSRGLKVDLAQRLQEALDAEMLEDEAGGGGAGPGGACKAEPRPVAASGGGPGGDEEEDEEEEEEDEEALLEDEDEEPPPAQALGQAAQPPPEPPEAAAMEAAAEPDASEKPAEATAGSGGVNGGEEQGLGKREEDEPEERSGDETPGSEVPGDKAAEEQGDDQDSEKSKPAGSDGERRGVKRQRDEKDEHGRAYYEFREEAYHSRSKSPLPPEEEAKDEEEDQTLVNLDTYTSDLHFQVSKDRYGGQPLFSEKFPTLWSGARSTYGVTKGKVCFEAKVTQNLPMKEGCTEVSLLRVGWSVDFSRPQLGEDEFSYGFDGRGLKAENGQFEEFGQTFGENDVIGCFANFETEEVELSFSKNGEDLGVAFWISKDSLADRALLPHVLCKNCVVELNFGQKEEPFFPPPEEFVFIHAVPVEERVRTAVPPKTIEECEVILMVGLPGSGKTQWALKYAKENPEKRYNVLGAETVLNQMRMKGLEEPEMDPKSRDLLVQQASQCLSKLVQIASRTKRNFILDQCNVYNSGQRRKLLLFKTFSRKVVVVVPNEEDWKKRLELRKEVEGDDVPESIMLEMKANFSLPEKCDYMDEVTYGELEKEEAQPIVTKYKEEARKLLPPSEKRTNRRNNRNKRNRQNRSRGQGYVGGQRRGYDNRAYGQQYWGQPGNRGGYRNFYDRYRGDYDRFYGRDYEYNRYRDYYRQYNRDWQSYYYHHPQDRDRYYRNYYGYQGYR
Chain of UniProt P11388 (whole entry, looked up): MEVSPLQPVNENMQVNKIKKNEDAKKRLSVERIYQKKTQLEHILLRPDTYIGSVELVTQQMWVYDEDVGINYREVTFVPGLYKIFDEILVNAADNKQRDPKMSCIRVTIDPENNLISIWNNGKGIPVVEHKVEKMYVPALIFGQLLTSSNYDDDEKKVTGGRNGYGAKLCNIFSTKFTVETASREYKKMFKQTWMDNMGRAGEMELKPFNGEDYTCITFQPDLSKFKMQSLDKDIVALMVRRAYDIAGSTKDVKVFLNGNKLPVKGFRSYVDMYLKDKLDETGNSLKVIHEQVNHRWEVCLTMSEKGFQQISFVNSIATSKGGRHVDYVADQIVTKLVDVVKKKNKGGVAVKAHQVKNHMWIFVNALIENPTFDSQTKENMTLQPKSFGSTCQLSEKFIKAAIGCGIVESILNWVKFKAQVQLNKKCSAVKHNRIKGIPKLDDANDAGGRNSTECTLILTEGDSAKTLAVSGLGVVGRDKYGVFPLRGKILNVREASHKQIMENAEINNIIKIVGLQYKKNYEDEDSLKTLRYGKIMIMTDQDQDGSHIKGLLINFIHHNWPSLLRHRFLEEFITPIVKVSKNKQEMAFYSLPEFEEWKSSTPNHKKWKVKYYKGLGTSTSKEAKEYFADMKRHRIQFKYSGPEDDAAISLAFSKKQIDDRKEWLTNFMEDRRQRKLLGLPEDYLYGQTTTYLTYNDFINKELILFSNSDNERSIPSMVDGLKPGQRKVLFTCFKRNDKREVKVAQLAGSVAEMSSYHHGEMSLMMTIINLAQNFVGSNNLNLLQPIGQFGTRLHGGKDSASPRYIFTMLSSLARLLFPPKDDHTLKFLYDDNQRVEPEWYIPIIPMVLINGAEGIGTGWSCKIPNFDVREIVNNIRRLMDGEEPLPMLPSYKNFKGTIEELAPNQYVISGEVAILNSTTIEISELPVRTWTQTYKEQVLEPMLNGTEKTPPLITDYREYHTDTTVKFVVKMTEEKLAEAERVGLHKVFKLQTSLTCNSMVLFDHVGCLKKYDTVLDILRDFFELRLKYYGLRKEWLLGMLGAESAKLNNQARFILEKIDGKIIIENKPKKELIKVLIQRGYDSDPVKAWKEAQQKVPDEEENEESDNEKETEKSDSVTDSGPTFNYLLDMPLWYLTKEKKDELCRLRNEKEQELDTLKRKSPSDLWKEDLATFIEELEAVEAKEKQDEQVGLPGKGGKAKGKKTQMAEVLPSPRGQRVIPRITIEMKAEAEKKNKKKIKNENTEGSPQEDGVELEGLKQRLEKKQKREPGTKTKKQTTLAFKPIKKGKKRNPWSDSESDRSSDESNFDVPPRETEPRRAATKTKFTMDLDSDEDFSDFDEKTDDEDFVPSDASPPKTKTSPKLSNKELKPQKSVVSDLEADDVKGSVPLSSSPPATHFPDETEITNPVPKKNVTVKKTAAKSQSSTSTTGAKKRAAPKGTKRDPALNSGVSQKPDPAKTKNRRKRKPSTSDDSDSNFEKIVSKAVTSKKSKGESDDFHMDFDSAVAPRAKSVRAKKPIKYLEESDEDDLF
Chain of UniProt P13798 (whole entry, looked up): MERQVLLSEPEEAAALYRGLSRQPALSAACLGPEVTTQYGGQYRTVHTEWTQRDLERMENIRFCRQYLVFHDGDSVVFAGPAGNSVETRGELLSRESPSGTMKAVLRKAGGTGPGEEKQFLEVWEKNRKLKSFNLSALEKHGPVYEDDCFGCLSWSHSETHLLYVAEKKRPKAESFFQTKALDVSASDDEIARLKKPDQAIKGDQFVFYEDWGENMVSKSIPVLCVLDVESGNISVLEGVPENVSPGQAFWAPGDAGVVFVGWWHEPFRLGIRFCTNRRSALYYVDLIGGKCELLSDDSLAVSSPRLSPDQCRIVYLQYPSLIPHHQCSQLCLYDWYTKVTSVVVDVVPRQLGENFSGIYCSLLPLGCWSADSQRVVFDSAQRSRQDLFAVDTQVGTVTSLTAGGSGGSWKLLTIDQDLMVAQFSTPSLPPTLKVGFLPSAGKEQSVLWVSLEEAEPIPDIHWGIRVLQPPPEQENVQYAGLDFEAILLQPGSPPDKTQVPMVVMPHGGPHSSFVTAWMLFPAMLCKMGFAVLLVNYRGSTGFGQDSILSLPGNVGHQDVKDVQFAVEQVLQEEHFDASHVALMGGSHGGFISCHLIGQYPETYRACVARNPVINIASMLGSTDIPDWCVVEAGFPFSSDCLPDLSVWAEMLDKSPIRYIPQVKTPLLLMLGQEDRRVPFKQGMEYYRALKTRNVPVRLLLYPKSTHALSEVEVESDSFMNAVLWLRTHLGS
Chain of UniProt P31645 (whole entry, looked up): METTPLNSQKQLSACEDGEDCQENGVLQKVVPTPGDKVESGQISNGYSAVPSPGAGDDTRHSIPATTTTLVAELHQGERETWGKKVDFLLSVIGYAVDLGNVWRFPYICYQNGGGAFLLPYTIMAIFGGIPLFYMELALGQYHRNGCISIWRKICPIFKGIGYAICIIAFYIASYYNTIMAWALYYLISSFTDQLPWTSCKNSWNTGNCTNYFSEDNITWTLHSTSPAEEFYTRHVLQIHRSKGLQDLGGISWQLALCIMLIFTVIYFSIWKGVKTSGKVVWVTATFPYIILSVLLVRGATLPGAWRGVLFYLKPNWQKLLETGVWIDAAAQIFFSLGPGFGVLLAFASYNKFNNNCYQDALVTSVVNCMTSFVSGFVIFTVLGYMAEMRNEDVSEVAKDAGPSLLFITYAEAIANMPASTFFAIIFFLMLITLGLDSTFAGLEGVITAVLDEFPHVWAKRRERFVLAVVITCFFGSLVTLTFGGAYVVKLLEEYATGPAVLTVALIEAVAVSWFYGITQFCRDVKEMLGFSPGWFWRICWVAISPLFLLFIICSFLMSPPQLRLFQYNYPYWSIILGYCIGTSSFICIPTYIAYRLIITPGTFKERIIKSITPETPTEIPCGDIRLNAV

For `Nc1ncnc2c1ncn2[C@H]1C[C@H](O)[C@@H](CO)O1`, the Km was 2980 ± 450 µM (deoxyribonucleoside phosphotransferase I (Trichomonas vaginalis); substrate; added: p-nitrophenylphosphate 100 mM).
The selectivity ratio of `Cc1cn([C@H]2C[C@H](N=[N+]=[N-])[C@@H](CO)O2)c(=O)[nH]c1=O` is reported as 1.16 (CA12; reference: Ki hCA II over Ki hCA XII).
For `O=C1CCC(N2C(=O)C=C(Nc3cccc(-c4cn(CCc5ccc(C(F)(F)F)c(Cl)c5)nn4)c3)C2=O)C(=O)N1` (stereo not drawn), the Dmax was 26% (ZBTB11/CRBN; protein degradation, degrader, HiBiT luminescence; MOLT-4).
`Cc1nn(CCc2ccccc2)c2ncc(C(=O)NCc3ccncc3)c(Cl)c12` — result for “protein adduct formation”: 7% (PREP (Homo sapiens, UniProt P48147); intact protein MS; 50 µM, 4 h, 37 °C).
`Cc1cc(-c2ccnc3[nH]cc(F)c23)cc(F)c1[C@@]1(O)[C@H](C)CN(C2CCS(=O)(=O)CC2)C[C@@H]1C` gave an inhibition of 7.8% (STK38 (Homo sapiens, UniProt Q15208); ATP probe binding, KiNativ, measured: Lys1 site; HEK293T cell lysate; 0.1 µM).
With `O=C(NC1CCC1)c1ccc2nc(-c3cccc(NS(=O)(=O)NCCN4CCCCC4)c3)cn2c1` the remaining activity was 84% (MAP4K4 (Homo sapiens, UniProt O95819); enzyme activity; 10 µM).
`CN1CCN(C(=O)c2cccc(-c3nc(N)nc(-c4ccccc4O)n3)c2)CC1` gave a pKD change of -0.1 (human adenosine A2A receptor Y271A; biophysical mapping; concentration not given; reference: wild type).
`CC[C@@H]1[C@H](F)C(=O)N[C@@H]1COc1nccc2cc(C(N)=O)c(OC)cc12` gave an inhibition of 34% (IRAK3 (Homo sapiens, UniProt Q9Y616); ATP-site probe binding, inhibitor, ActivX ATP probe profiling; THP-1 cell lysate; 0.2 mM, kinase domain site).
With `CN(C)C(=O)C(CCN1CCC(O)(c2ccc(Cl)cc2)CC1)(c1ccccc1)c1ccccc1` the normalized Gmax was 0.114 (Calcium-activated potassium channel subunit alpha-1, with LRRC26 γ1 subunit (KCNMA1, Homo sapiens, UniProt Q12791); BK current, inhibitor, inside-out patch clamp; excised membrane patch; 30 µM, γ1 subunit coexpressed, added: nominally 0 Ca2+ cytosolic; reference: without loperamide).
For `CC[C@@H](C)[C@@H](NC(=O)[C@@H](Cc1ccc(O)cc1)NC(=O)[C@H]1CCCN1C(=O)[C@@H](CCCNC(=N)N)NC(=O)[C@H](N)Cc1c[nH]cn1)C(=O)N[C@H](C)C(=O)N[C@H](Cc1c[nH]cn1)C(=O)N[C@H](CCCNC(=N)N)C(=O)N[C@@H](C(=O)N[C@H](Cc1ccc(O)cc1)C(=O)N[C@H](CO)C(=O)N[C@H](Cc1ccccc1)C(N)=O)C(C)C`, “surface TFRC expression” read 0.963 (Transferrin receptor protein 1 (Tfrc, Mus musculus, UniProt Q62351); flow cytometry; RAW264.7; 24 h, pH 7.4, unit not given; reference: 0 h).
`O=C(COP(=O)(O)O)[C@@H](O)[C@H](O)[C@H](O)COP(=O)(O)O` — result for “thermal stability ratio”: 0.824 and 0.625 and 0.529 (Heterogeneous nuclear ribonucleoprotein U-like protein 2 (Homo sapiens, UniProt Q1KMD3); thermal proteome profiling, measured: HNRNPUL2; HepG2 cell lysate; concentration not given, 57 over 37 °C; reference: compound over control).
The protein adduct of `CCC1(O)CCCN(C(=O)c2ccc(-c3ccc(F)c(NC(=O)CCl)c3)cc2)C1` (stereo not drawn) is reported as 0% (DNA dC->dU-editing enzyme APOBEC-3B, C-terminal domain (Homo sapiens, UniProt Q9UH17); covalent modifier, intact protein mass spectrometry, measured: adduct +26487 Da; 125 µM, 3 h, 5-fold molar excess).
The activation of `CN1CCN(c2cc(-c3ccncc3)c(-c3ccc4ccccc4c3)nn2)CC1` is reported as -1.4% (LPAR3 (Homo sapiens, UniProt Q9UBY5); agonist, FLIPR; 12.5 µM).
`Cc1cc(C)c2nc(C)cc(NCCc3ccccc3)c2c1`: “inward current density” -4 ± 0.3 pA/pF (CatSper channel complex (Homo sapiens, UniProt Q7RTX7+Q86XQ3+Q8NEC5+Q96P56); ion current, whole-cell patch clamp; human sperm; 10 µM, at -80 mV).
`CCOc1cc(-c2nncn2C)ccc1Nc1ncc2cc(C)nc(NCC(C)(C)C)c2n1` has a displacement of 78% (NLK; binding, LanthaScreen binding; 1 µM).
With `CC(=O)N[C@H](C(=O)N1C[C@H](O)C[C@H]1C(=O)NCc1ccc(-c2scnc2C)cc1)C(C)(C)SCCCCCCNC(=O)C[C@@H]1N=C(c2ccc(Cl)cc2)c2c(sc(C)c2C)-n2c(C)nnc21` the binding stoichiometry was 0.68 ± 0.02 (Bromodomain-containing protein 3, BD1 (BRD3, Homo sapiens, UniProt Q15059); ITC; concentration not given, 25 °C, compound in cell, protein in syringe).
`O=C(O)c1ccc(Nc2ncc3c(n2)-c2ccc(Cl)cc2C(c2c(F)cccc2F)=NC3)cc1` gave a remaining activity of 114% (human PASK(h); kinase activity; 1 µM).
With `COc1cc(-c2cncc3c2CN(C)Cc2cc(N4CCNCC4)ccc2-3)cc(OC)c1OC` the remaining activity was 89% (KIT (Homo sapiens, UniProt P10721, V654A); kinase activity; 1 µM, added: ATP 10 µM; reference: DMSO control).
The Dmax of `CCC(C)(NCCc1ccc(C(F)(F)F)cc1)c1cccc(NC2=CC(=O)N(C3CCC(=O)NC3=O)C2=O)c1` (stereo not drawn) is reported as 47% (ZBTB11/CRBN; protein degradation, degrader, HiBiT luminescence; MOLT-4).
`N#Cc1ccn2c(-c3ccncc3)c(-c3ccc(F)cc3)nc2c1` gave a receptor occupancy of 40 to 70% (NLK; NanoBRET; HEK293; 1.0 µM).
The remaining binding of `C=CC(=O)N1CCC(COCC(=O)N2CCN(c3nc(-c4cnc(N)nc4C(F)F)nc(N4CCOC[C@@H]4C)n3)CC2)CC1` is reported as 90% (Cyclin-dependent kinase 4, with cyclin D1 (CDK4, Homo sapiens, UniProt P11802); KINOMEscan; 1 µM).
`CC(=O)Nc1ncc([N+](=O)[O-])s1` has a Hill slope of 1.26 (GSK3A (Homo sapiens, UniProt P49840); kinase activity, inhibitor, Z'-LYTE).
`CCCCc1nc2c(N)nc3ccccc3c2n1Cc1cccc2ccccc12` — result for agonist activity: “inactive” (TLR7 (Homo sapiens, UniProt Q9NYK1); reporter gene, agonist; human cells; concentration not given).
`CCOC(=O)N1CCC(CN(Cc2ccc(Cl)cc2)Cc2ccc([N+](=O)[O-])s2)C1` (stereo not drawn) gave a melting temperature of 50.7 ± 0.3 °C (NR1D1; circular dichroism melt; saturating ligand).
`CCN1CCN(c2cc(N3CCN(CC)CC3)nc(NCCNc3ccnc4cc(Cl)ccc34)n2)CC1` has an activation of 1.33 fold (NR1D1; reporter gene, Gal4 hybrid reporter; 20 µM; reference: vehicle).
For `O=C(O)C1CCCNC1` (stereo not drawn), “normalised MST signal” read 0.0669 (SLC6A6 G62A; binding, microscale thermophoresis; 1.95 µM, room temperature, added: 50 nM labelled protein; higher = more binding).
The cooperativity factor of `Oc1ccc(/C=C/c2cc(O)cc(O)c2)cc1` is reported as 97.9 (O-methyltransferase (Sorghum bicolor, UniProt A0A1B6PFV1); ITC two-site model; exothermic site, added: sinefungin).
Under IC50, `CC(C)c1cccc2c(-c3ccccc3)cc(/C=C/c3ccc(C(=O)O)cc3)nc12` is recorded as “inactive” (RARG (Homo sapiens, UniProt P13631); reporter gene, antagonist; up to 3300 nM, added: ATRA 8 nM (EC80)).
For `O=C(CCCc1ccccc1)C(=O)NCCc1ccc(Oc2ccc(C(F)(F)F)cn2)cc1`, “probe-enriched protein abundance” read 544000 a.u. and 498000 a.u. and 506000 a.u. (APEH (Homo sapiens, UniProt P13798); inhibitor, FP-biotin chemoproteomics; HepG2; concentration not given; reference: DMSO, lower = stronger inhibition).
`Nc1nc2c(ncn2[C@@H]2O[C@H](COP(=O)(O)O)[C@@H](O)[C@H]2O)c(=O)[nH]1` gave a Vmax of 0.154 µM/s (GUK1; substrate, NADH-coupled; KCl 50 mM, enzyme 2 nM).
With `Nc1ncnc2c1ncn2[C@@H]1O[C@H](COP(=O)(O)CP(=O)(O)OP(=O)(O)O)[C@@H](O)[C@H]1O` the specific binding was 183 CCPM and 159 CCPM and 224 CCPM (P2X purinoceptor 1 (P2RX1, Homo sapiens, UniProt P51575, D170A); saturation binding; HEK293; 52 nM).
The reaction velocity of `O=S(=O)(O)O` is reported as 0.0568 µM/s and 0.0628 µM/s and 0.059 µM/s (GUK1; enzyme activity, NADH-coupled; 10 mM, added: ATP 250 µM).
`[2H]c1cc(C)c(NC(=O)c2cnc(Nc3cc(N4CCCCC4)nc(C)n3)s2)c(Cl)c1` has an inhibition of over 90% (CSF1R (Homo sapiens, UniProt P07333); 0.01 µM).
`c1coc(-c2n[nH]cc2-c2ccnc3ccccc23)c1` — result for “log2 fold change”: -0.22 (Negative regulator of the PHO system (PHO85, Candida albicans, UniProt Q9HGY5); kinase binding, MIB/MS competition; Candida albicans lysate; 1 µM; reference: DMSO, negative = stronger binding).
For `Cc1nc(CSc2nc(SCc3ccc(C(C)C)cc3)nc(=O)[nH]2)cs1`, “mean relaxed DNA” read 18.7% (TOP2A; DNA relaxation; 125 µM).
`CSCC[C@H](NC(=O)[C@@H]1CCCN1C(C)=O)C(=O)N[C@@H](C)C(=O)N[C@@H](CO)C(=O)N[C@@H](CC(=O)O)C(=O)N1CCC[C@H]1C(=O)N[C@@H](CC(C)C)C(=O)NCC(=O)N[C@H](C(=O)N[C@H](C(=O)N[C@@H](CCCNC(=N)N)C(=O)N1CCC[C@H]1C(=O)N[C@@H](CCCNC(=N)N)C(=O)N[C@@H](C)C(=O)N[C@@H](CCCNC(=N)N)C(=O)N[C@@H](C)C(=O)NCCCC[C@H](NC(=O)[C@H](C)NC(=O)[C@H](CCCNC(=N)N)NC(=O)[C@H](C)NC(=O)[C@H](CCCNC(=N)N)NC(=O)[C@@H]1CCCN1C(=O)[C@H](CCCNC(=N)N)NC(=O)[C@@H](NC(=O)[C@@H](NC(=O)CNC(=O)[C@H](CC(C)C)NC(=O)[C@@H]1CCCN1C(=O)[C@H](CC(=O)O)NC(=O)[C@H](CO)NC(=O)[C@H](C)NC(=O)[C@H](CCSC)NC(=O)[C@@H]1CCCN1C(C)=O)C(C)C)C(C)C)C(=O)NCCC(=O)N[C@@H](CCCCNC(=O)CCOCCOCCOCCOCCNC(=O)CCCC[C@@H]1SC[C@@H]2NC(=O)N[C@@H]21)C(N)=O)C(C)C)C(C)C`: binding “no binding” (MDM2; biolayer interferometry; concentration not given, added: MDM2 7.8-1000 nM).
`O=c1nc(SCc2cc(F)cc(C(F)(F)F)c2)nc(SCc2ccc3nc(Cl)ccc3c2)[nH]1` has a decatenated DNA of 0% (TOP2A; decatenation; 31.25 µM, replicate 1).
For `COc1cc(C(=O)NS(=O)(=O)c2ccccc2C)ccc1Cc1cn(C)c2ccc(NC(=O)OC3CCCC3)cc12`, the inhibition was 83.1% and 88.4% and 91.1% and 92.7% and 91.9% (Volume-regulated anion channel subunit LRRC8C, part LRRC8A IL1 chimera (LRRC8C, Homo sapiens, UniProt Q8TDW0, L105R); ion current, inhibitor, whole-cell patch clamp; HCT LRRC8-/- cells; 100 µM, +100 mV).
With `C[C@H](N)C(=O)Nc1ccc2ccccc2c1` the Km was 10 µM (rat neuron-specific aminopeptidase; substrate).
`CC(C)=CCC/C(C)=C/CC/C(C)=C/CC/C(C)=C/COP(=O)(O)OP(=O)(O)O` gave a Km of 6.74 µM (SpS; substrate, pyrophosphate release; added: MgCl2 2.5 mM).
With `N#CSCc1cc(=O)oc2cc(O)ccc12` the selectivity ratio was over 4240 (CA12; stopped-flow CO2 hydration; reference: Ki CA II over Ki CA XII).
`O=c1nc(SCc2ccc(C(F)(F)F)cc2)nc(SCc2csc3ccc(Cl)cc23)[nH]1` — result for “mean relaxed DNA”: 0.3% (TOP2A; DNA relaxation; 31.25 µM).
`N#Cc1ccc2[nH]cc(CCCCN3CCN(c4ccc5oc(C(N)=O)cc5c4)CC3)c2c1` gave a Hill coefficient of 1.42 and 1.4 (SLC6A4 (Homo sapiens, UniProt P31645); serotonin uptake, inhibitor; COS-7 expressing SLC6A4; added: [3H]5-HT).
`[H]/N=C(/N)NCC(=O)O` — result for “normalised MST signal”: 0.0303 (SLC6A6 G62A; binding, microscale thermophoresis; 31.3 µM, room temperature, added: 50 nM labelled protein; higher = more binding).
`CN1CCC(CNc2ccc3ncc(-c4cccc(OC(F)(F)F)c4)n3n2)CC1` gave an activation of over 50% (HTR1B (Homo sapiens, UniProt P28222); cAMP, agonist; 10 µM; reference: control).

Excerpt of the above:
`CN1CCC(CNc2ccc3ncc(-c4cccc(OC(F)(F)F)c4)n3n2)CC1` gave an activation of over 50% (HTR1B (Homo sapiens, UniProt P28222); cAMP, agonist; 10 µM; reference: control).
For `Nc1ncnc2c1ncn2[C@H]1C[C@H](O)[C@@H](CO)O1`, the Km was 2980 ± 450 µM (deoxyribonucleoside phosphotransferase I (Trichomonas vaginalis); substrate; added: p-nitrophenylphosphate 100 mM).
`[H]/N=C(/N)NCC(=O)O` — result for “normalised MST signal”: 0.0303 (SLC6A6 G62A; binding, microscale thermophoresis; 31.3 µM, room temperature, added: 50 nM labelled protein; higher = more binding).
